Measurements of several laboratories.
Each numbered part is a random draw from the data of one study; scales do not carry over between parts.
UniProt P33981, sequence (whole entry, looked up): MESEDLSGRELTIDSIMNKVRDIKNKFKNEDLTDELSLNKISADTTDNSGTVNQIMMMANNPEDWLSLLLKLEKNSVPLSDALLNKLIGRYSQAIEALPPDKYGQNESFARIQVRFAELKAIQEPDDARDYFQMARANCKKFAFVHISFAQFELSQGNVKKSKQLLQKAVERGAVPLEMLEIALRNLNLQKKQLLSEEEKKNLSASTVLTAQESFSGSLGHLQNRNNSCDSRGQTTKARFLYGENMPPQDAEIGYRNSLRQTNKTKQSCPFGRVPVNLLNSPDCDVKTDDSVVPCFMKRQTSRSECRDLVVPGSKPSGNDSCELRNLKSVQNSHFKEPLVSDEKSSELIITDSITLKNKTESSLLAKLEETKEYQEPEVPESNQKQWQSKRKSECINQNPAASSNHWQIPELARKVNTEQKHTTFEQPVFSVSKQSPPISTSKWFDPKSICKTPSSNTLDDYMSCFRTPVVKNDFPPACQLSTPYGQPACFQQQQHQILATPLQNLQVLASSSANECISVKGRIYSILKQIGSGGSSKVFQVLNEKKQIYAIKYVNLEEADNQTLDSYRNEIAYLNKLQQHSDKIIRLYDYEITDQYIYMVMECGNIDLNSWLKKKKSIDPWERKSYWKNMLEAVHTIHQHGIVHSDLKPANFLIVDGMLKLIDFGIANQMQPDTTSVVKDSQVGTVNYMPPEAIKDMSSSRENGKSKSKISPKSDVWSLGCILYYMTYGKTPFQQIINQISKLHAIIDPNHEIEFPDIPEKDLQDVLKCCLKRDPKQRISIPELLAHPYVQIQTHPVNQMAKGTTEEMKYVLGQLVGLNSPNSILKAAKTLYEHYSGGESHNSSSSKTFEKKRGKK
UniProt P06213, sequence (whole entry, looked up): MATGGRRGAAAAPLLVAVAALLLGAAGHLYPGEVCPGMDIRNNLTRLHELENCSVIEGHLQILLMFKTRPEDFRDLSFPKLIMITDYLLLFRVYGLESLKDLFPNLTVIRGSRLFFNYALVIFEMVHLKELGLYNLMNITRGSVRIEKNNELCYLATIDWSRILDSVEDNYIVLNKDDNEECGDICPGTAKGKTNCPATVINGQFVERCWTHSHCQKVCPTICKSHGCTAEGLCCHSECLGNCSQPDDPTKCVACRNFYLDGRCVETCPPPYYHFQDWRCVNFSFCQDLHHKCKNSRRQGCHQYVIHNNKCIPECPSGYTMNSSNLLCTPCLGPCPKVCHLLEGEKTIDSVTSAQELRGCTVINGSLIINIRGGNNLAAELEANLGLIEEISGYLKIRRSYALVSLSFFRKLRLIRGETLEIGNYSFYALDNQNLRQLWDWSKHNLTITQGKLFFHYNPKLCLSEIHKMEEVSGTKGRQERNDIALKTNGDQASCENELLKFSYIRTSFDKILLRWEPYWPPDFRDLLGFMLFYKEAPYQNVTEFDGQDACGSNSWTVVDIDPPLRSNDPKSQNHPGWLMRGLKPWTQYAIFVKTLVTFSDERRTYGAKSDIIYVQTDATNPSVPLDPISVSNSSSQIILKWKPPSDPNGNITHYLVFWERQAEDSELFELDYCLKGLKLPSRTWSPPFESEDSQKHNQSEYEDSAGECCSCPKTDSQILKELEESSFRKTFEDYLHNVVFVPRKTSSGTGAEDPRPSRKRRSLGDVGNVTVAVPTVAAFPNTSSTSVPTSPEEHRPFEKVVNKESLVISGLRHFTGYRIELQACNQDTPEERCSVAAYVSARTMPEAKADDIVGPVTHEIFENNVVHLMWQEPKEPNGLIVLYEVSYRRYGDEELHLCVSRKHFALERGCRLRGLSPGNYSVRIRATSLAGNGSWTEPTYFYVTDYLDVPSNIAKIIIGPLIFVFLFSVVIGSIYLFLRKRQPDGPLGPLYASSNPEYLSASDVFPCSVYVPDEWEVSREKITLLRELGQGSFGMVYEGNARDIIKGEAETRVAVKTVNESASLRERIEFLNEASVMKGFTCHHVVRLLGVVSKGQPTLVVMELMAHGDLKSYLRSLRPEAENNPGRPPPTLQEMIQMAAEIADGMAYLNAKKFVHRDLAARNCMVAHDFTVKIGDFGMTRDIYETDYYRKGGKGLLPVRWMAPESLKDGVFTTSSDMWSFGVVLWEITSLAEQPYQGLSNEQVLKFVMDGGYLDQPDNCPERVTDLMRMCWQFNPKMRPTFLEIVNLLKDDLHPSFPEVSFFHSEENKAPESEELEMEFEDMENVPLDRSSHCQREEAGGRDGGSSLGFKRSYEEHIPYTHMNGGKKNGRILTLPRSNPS
UniProt P21127, sequence (whole entry, looked up): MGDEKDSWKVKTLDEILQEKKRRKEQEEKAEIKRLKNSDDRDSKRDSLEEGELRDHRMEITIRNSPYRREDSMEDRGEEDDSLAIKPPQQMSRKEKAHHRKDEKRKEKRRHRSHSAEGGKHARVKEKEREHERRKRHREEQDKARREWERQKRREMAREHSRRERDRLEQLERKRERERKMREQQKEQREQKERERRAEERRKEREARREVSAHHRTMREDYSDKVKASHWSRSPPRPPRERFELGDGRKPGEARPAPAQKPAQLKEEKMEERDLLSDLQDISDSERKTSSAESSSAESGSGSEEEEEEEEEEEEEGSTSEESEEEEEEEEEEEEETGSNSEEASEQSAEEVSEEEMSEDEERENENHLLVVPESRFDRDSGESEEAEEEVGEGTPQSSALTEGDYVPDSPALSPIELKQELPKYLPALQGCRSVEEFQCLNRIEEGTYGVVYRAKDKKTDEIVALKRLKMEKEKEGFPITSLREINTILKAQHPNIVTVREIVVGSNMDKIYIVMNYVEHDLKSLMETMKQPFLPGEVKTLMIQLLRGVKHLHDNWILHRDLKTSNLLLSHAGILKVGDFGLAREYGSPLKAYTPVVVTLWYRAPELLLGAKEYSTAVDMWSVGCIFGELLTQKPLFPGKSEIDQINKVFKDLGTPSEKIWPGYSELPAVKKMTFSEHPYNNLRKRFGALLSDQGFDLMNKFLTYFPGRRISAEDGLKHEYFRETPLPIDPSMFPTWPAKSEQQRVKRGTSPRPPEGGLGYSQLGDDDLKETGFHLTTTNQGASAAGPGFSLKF
UniProt Q9C098, sequence (whole entry, looked up): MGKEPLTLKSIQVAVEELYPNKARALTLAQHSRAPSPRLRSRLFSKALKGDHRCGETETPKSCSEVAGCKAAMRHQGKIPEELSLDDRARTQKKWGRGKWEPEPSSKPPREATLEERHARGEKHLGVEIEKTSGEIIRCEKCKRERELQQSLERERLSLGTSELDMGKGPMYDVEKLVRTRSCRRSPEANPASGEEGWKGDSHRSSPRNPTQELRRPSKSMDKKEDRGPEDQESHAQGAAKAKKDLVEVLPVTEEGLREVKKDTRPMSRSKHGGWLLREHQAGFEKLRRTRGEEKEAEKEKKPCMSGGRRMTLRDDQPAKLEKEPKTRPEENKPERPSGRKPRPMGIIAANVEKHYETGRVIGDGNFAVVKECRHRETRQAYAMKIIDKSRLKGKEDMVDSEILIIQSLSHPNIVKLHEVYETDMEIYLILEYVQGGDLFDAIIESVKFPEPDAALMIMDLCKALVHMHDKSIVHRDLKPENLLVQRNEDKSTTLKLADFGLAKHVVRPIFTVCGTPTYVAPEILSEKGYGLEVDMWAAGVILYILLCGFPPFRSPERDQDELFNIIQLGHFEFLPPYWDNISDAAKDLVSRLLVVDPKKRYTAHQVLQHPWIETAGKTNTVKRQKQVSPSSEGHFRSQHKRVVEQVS

Sample 1
Target: Cyclin-dependent kinase 5, with p35 (CDK5, Homo sapiens, UniProt Q00535)
UniProt Q00535, sequence (whole entry, looked up): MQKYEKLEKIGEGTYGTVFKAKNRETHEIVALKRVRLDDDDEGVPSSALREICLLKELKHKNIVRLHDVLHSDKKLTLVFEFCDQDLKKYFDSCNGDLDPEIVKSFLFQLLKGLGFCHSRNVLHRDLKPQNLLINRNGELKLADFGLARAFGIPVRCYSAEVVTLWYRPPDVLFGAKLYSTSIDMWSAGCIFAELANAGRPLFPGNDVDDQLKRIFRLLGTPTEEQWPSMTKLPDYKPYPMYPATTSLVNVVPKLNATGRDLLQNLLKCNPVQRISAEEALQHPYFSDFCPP
Effect on: enzyme activity
Mode: inhibitor
Tested at: 0.5 µM
Baseline: control
`Cc1cc(Nc2nc(-c3ccccc3)nc3ccccc23)n[nH]1` has a remaining activity of 77.1%.
With `O=S(=O)(NCCNC/C=C/c1ccc(Br)cc1)c1cccc2cnccc12` the remaining activity was 92.6%.
The remaining activity of `COc1cc(Nc2c(C#N)cnc3cc(OCCCN4CCN(C)CC4)c(OC)cc23)c(Cl)cc1Cl` is reported as 98.3%.
With `Cc1cncc2cccc(S(=O)(=O)N3CCCN(C(=O)CN)C[C@@H]3C)c12` the remaining activity was 97.4%.
With `O=C1Cc2c([nH]c3ccc([N+](=O)[O-])cc23)-c2ccccc2N1` the remaining activity was 7.98%.
`Nc1nccc(-c2c(-c3ccc(F)cc3)ncn2C2CCNCC2)n1` gave a remaining activity of 102%.
`N#CC(=C(N)Sc1ccc(N)cc1)c1ccccc1C(F)(F)F` has a remaining activity of 103%.
With `COc1ccc(S(=O)(=O)N(CCO)c2ccccc2CN(C)CC=Cc2ccc(Cl)cc2)cc1` the remaining activity was 99.9%.

Sample 2
SMILES: C=CCc1ccc(O)c(-c2cc(CC=C)ccc2O)c1
Effect on: chloride current
Method: whole-cell voltage clamp
ANO1 del476-501/M544A: Anoctamin-1 (ANO1, Homo sapiens, UniProt Q5XXA6, del476-501/M544A)
UniProt Q5XXA6, sequence (whole entry, unmodified, looked up): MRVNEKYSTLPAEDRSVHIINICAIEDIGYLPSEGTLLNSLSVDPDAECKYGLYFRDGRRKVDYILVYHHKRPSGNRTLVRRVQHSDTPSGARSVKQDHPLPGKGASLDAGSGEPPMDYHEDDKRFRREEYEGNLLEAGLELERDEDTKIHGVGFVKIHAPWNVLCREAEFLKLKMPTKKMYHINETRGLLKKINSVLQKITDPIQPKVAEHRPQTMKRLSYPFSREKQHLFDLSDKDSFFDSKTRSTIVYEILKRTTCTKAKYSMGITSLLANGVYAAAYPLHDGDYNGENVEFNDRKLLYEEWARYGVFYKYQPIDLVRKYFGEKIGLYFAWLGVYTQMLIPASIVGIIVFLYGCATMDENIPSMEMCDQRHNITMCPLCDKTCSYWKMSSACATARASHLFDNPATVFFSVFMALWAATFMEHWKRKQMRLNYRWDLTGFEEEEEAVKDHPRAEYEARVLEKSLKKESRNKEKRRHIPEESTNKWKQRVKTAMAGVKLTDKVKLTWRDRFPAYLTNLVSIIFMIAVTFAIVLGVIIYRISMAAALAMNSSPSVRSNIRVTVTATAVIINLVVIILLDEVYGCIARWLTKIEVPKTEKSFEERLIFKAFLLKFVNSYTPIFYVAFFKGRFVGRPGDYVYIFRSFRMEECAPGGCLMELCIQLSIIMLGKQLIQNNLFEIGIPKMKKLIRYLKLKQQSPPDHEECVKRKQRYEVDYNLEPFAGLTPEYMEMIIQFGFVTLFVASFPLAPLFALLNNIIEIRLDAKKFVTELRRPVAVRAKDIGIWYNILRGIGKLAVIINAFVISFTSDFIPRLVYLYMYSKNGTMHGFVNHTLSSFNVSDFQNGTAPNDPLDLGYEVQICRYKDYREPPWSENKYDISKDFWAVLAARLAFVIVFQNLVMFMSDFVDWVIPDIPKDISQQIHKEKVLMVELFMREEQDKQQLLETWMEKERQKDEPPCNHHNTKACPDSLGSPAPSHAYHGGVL
ANO1 del476-501/F803A: Anoctamin-1 (ANO1, Homo sapiens, UniProt Q5XXA6, del476-501/F803A)
It gave 99 µM for IC50 (ANO1 del476-501/M544A; membrane voltage -60 mV).
The IC50 was 18.1 µM (ANO1 del476-501/F803A; membrane voltage 40 mV).
Anoctamin-1 (ANO1, Homo sapiens, UniProt Q5XXA6, del476-501/M544V); inhibitor; 100 mV holding voltage — IC50: 171 µM.
The IC50 was 172 µM (Anoctamin-1 (ANO1, Homo sapiens, UniProt Q5XXA6, del476-501/R541D); inhibitor; R515D mutant at -80 mV).
ANO1 del476-501/F803A; membrane voltage -100 mV — IC50: 84 µM.
It gave 65.4 µM for IC50 (ANO1 del476-501/F803A; membrane voltage -80 mV).
The IC50 was 24.7 µM (Anoctamin-1 (ANO1, Homo sapiens, UniProt Q5XXA6, del476-501/R561A); membrane voltage 60 mV).
ANO1 del476-501/M544A; membrane voltage -80 mV — IC50: 111 µM.

Sample 3
SMILES: C[C@@H](c1cccc(C#N)c1)n1cc(Cl)cc(C(N)=O)c1=N
Method: competition with immobilised ligand
Tested at: 1 µM
Phosphatidylinositol 4-kinase beta (PI4KB, Homo sapiens, UniProt Q9UBF8); cell-free assay — remaining binding: 85%.
Cyclin-dependent kinase 11B (CDK11B, Homo sapiens, UniProt P21127); cell-free assay — remaining binding: 86%.
Serine/threonine-protein kinase WNK3 (WNK3, Homo sapiens, UniProt Q9BYP7); cell-free assay — remaining binding: 82%.
5'-AMP-activated protein kinase catalytic subunit alpha-2 (PRKAA2, Homo sapiens, UniProt P54646); cell-free assay — remaining binding: 96%.
The remaining binding was 100% (Dual specificity protein kinase TTK (TTK, Homo sapiens, UniProt P33981); cell-free assay).
It gave 90% for remaining binding (Epidermal growth factor receptor (EGFR, Homo sapiens, UniProt P00533, del747-752/P753S); cell-free assay).
For Macrophage-stimulating protein receptor (MST1R, Homo sapiens, UniProt Q04912); cell-free assay: remaining binding read 100%.
For Serine/threonine-protein kinase B-raf (BRAF, Homo sapiens, UniProt P15056); cell-free assay: remaining binding read 96%.
Serine/threonine-protein kinase Sgk3 (SGK3, Homo sapiens, UniProt Q96BR1); cell-free assay — remaining binding: 77%.
It gave 99% for remaining binding (Myosin-IIIa (MYO3A, Homo sapiens, UniProt Q8NEV4); binding).
The remaining binding was 86% (Serine/threonine-protein kinase DCLK3 (DCLK3, Homo sapiens, UniProt Q9C098); cell-free assay).
For Insulin receptor (INSR, Homo sapiens, UniProt P06213); cell-free assay: remaining binding read 100%.
For Testis-specific serine/threonine-protein kinase 3 (TSSK3, Homo sapiens, UniProt Q96PN8); cell-free assay: remaining binding read 100%.

Single results of other studies
Under “log2 fold change”, `CC(C)(C)c1cnc(CSc2cnc(NC(=O)C3CCN(CCCCCSc4cccc5c4CN(C4CCC(=O)NC4=O)C5=O)CC3)s2)o1` (stereo not drawn) is recorded as 1.08 (HuT78; MS proteomics, refers to: P36578 (RPL4); concentration not given, 12 h; baseline: 0 h).

A few entries again (sample 2):
ANO1 del476-501/F803A; membrane voltage -100 mV — IC50: 84 µM.
It gave 65.4 µM for IC50 (ANO1 del476-501/F803A; membrane voltage -80 mV).
The IC50 was 24.7 µM (Anoctamin-1 (ANO1, Homo sapiens, UniProt Q5XXA6, del476-501/R561A); membrane voltage 60 mV).
ANO1 del476-501/M544A; membrane voltage -80 mV — IC50: 111 µM.
